Experimental data collected from several papers.
Lines come from different studies, so protocols differ. Values joined by “and” are separate records of one study, mostly repeats; a detail may differ. ± gives the spread as reported.
FFAR4: Free fatty acid receptor 4 (FFAR4, Homo sapiens, UniProt Q5NUL3)
TRPM8: Transient receptor potential cation channel subfamily M member 8 (TRPM8, Homo sapiens, UniProt Q7Z2W7)
NADH dehydrogenase [ubiquinone] iron-sulfur protein 7, mitochondrial/NADH dehydrogenase [ubiquinone] iron-sulfur protein 2, mitochondrial/MT-ND1: NADH dehydrogenase [ubiquinone] iron-sulfur protein 7, mitochondrial/NADH dehydrogenase [ubiquinone] iron-sulfur protein 2, mitochondrial/MT-ND1 (Homo sapiens, UniProt O75251+O75306+P03886)
Kir3.1/Kir3.2: Kir3.1/Kir3.2 (Homo sapiens, UniProt P48051+P48549)
GAP50: Glideosome-associated protein 50 (GAP50, Plasmodium falciparum, UniProt Q8I2X3)
MAOA: Amine oxidase [flavin-containing] A (MAOA, Homo sapiens, UniProt P21397)

SMILES | target | assay | test system | conditions | how to read | measurement | result
C=CC(=O)N1CCC[C@@H](n2nc(-c3ccc(Oc4ccccc4)cc3)c3c(N)ncnc32)C1 | ABL2 (Homo sapiens, UniProt P42684) | – | – | 0.1 µM | – | remaining activity | 785%
O=c1cc(NCCc2ccccc2F)[nH]c(=O)[nH]1 | FFAR4 | agonist, β-arrestin recruitment | CHO cells | 10 µM | – | activation | 1%
CN1CCC(CNc2ccc3ncc(-c4cccc(OC(F)(F)F)c4)n3n2)CC1 | CHRM2 (Homo sapiens, UniProt P08172) | cAMP, antagonist, cell-based GPCR | – | 10 µM | relative to: control | response | > 50%
c1ccc(-c2[nH]ncc2-c2ccnc3ccccc23)nc1 | TRPM8 | antagonist | HEK293 | 5 µM | relative to: control | remaining activity | 105 ± 6.32%
NC(=O)NOCCCCCCCCCC[P+](c1ccccc1)(c1ccccc1)c1ccccc1.O=C([O-])C(F)(F)F | NADH dehydrogenase [ubiquinone] iron-sulfur protein 7, mitochondrial/NADH dehydrogenase [ubiquinone] iron-sulfur protein 2, mitochondrial/MT-ND1 | complex I-dependent respiration, Seahorse XF96 | HCT-116 | 20 µM, 24 h | relative to: control | oxygen consumption rate | 5.51 ± 10.1%
CC(C)(C)c1cnc(CSc2cnc(NC(=O)C3CCN(C(=O)CCCCCCCN4Cc5cc6c(cc5C4)C(=O)N(C4CCC(=O)NC4=O)C6=O)CC3)s2)o1 (stereo not shown) | CDK9 (Homo sapiens, UniProt P50750) | degrader, Western blot | TC-71 | 10 nM | – | time to CDK9 degradation | ≤ 2 h
O=C(COc1ccc(C(F)(F)F)cc1C(F)(F)F)Nc1cc(C2CCC2)nn1C1CCOCC1 | Kir3.1/Kir3.2 | thallium flux, activator | HEK293 | – | relative to: standard compound | Emax | 49%
N[C@@](CCCCB(O)O)(C(=O)O)C1CCN(Cc2ccc(Cl)c(Cl)c2)CC1 (racemic) | Arginase (Schistosoma mansoni, UniProt Q6WVP6) | isothermal titration calorimetry | – | concentration not given | – | binding enthalpy | -7.7 ± 0.1 kcal/mol
O=c1nc(SCc2cc(F)cc(C(F)(F)F)c2)nc(SCc2csc3ccc(Cl)cc23)[nH]1 | TOP2B (Homo sapiens, UniProt Q02880) | decatenation | – | 7.8 µM, replicate 2 | – | decatenated DNA | 73.4%
Cc1cc(C)cc(COc2ccc3c(C)c(CCC(=O)O)c(=O)oc3c2C)c1 | GAP50 | binding, surface plasmon resonance | – | 1:1 binding model | – | koff | 0.953 s⁻¹
O=c1cc(N2CCC(c3ccccc3)CC2)[nH]c(=O)[nH]1 | FFAR4 | agonist, β-arrestin recruitment | CHO cells | 10 µM | relative to: 30 µM TUG-891 | agonist effect | 0%
O=C(O)C1=CC(=C(c2ccc(O)c(C(=O)O)c2)c2ccc(O)c(C(=O)O)c2)C=CC1=O | P2X purinoceptor 3 (P2RX3, Homo sapiens, UniProt P56373) | patch clamp | HEK293 | 4 µM, unit not given | relative to: baseline | remaining current | 0.094 ± 0.009
Cc1cc(NC(=O)CNC2CCCNC2)n(C2CCS(=O)(=O)C2)n1 (stereo not shown) | Kir3.1/Kir3.2 | activator, thallium flux | HEK293 | concentration not given | – | activity | inactive
CCCCCCNc1cc(=O)[nH]c(=O)n1C | FFAR4 | antagonist, β-arrestin recruitment | CHO cells | 10 µM | – | inhibition | 19 ± 7%
O=C1NC(=O)C(c2c[nH]c3ccccc23)=C1c1c[nH]c2ccccc12 | TRPM8 | antagonist | HEK293 | 5 µM | relative to: control | remaining activity | 89 ± 6.05%
C=CC(=O)N1CCC(C(=O)NCC(=O)N2CCN(c3nc(-c4cnc(N)nc4C(F)F)nc(N4CCOCC4)n3)CC2)CC1 | MYLK4 (Homo sapiens, UniProt Q86YV6) | KINOMEscan | – | 1 µM | – | remaining binding | 100%
CCCCCCCCCNc1cc(=O)n(C)c(=O)[nH]1 | FFAR4 | β-arrestin recruitment | CHO | 10 µM | relative to: 30 µM TUG-891 | agonist effect | 0%

SMILES | target | assay | test system | conditions | how to read | measurement | result
Oc1ccccc1-c1n[nH]cc1-c1ccnc2ccccc12 | YCK2 (Candida albicans, UniProt A0A1D8PKB4) | kinase binding, MIB/MS competition | Candida albicans lysate | 10 µM | relative to: DMSO, negative = stronger binding | log2 fold change | -2.01
Nc1ccc(C(=O)O)cc1 | BEST1, with wild-type BEST1 (Homo sapiens, UniProt O76090, R218H) | ion current, whole-cell patch clamp | HEK293 co-expressing mutant and wild-type | concentration not given, voltage 80 mV | – | current density | 9.35 pA/pF and 15.6 pA/pF and 17.5 pA/pF and 36.5 pA/pF and 5.11 pA/pF and 6.61 pA/pF and 22.1 pA/pF
CC[C@@H]1[C@H](F)C(=O)N[C@@H]1COc1nccc2cc(C(N)=O)c(OC)cc12 | TNIK (Homo sapiens, UniProt Q9UKE5) | ATP probe binding, KiNativ profiling, item: Lys1 probe site | THP-1 cell lysate | 0.04 mM | – | inhibition | -2.7%
CN1C(C(=O)Nc2ccccn2)=C(O)c2sc(Cl)cc2S1(=O)=O | Nuclear receptor subfamily 4 group A member 2, LBD (Homo sapiens, UniProt P43354) | reporter gene, Gal4 hybrid reporter | – | 30 µM | relative to: vehicle | activation | 0.86 fold
N#Cc1c(N)nc(-c2ccccc2)nc1C(F)(F)F | 3-oxoacyl-[acyl-carrier-protein] reductase FabG (fabG, Pseudomonas aeruginosa, UniProt O54438) | enzyme activity, inhibitor, NADPH fluorescence | – | reverse reaction, with: 3-OH-decanoyl-NAC, NADP | – | Hill slope | 1.6
CC[C@H](C)[C@@H]1NC(=O)[C@H](C)NC(=O)[C@H]([C@@H](C)CC)NC(=O)[C@H](CCC(N)=O)NC(=O)[C@H](C)NC(=O)[C@H](CCCNC(=N)N)NC(=O)[C@H](C(C)C)NC(=O)[C@H](CC(C)C)NC(=O)[C@H](CCC(=O)O)NC(=O)[C@H](CCCNC(=N)N)NC(=O)CNC(=O)[C@@H](NC(=O)[C@H](CC(C)C)NC(=O)[C@H](CCCCN)NC(=O)[C@@H](NC(=O)[C@@H](NC(=O)[C@H](CCC(=O)O)NC(=O)[C@H](CCC(=O)O)NC(=O)[C@H](CCSC)NC(=O)[C@H](Cc2c[nH]c3ccccc23)NC(=O)[C@H](CO)NC(=O)[C@@H](N)CC(=O)O)C(C)C)[C@@H](C)CC)CSSC[C@@H]2NC(=O)[C@@H](NC(=O)[C@H](CCCCN)NC(=O)[C@H](CC(N)=O)NC(=O)[C@H](C)NC(=O)[C@H](CC(C)C)NC(=O)[C@H](C)NC(=O)[C@H](CO)NC(=O)[C@H](Cc3ccc(O)cc3)NC(=O)[C@H](CC(C)C)NC(=O)[C@H](CCC(N)=O)NC(=O)c3ccc(-c4c5ccc(=[N+](C)C)cc-5oc5cc(N(C)C)ccc45)c(C(=O)[O-])c3)CSSC[C@H](NC(=O)CNC(=O)[C@H](C(C)C)NC(=O)[C@H](Cc3c[nH]cn3)NC2=O)C(=O)N[C@@H]([C@@H](C)O)C(=O)N[C@@H](CCCCN)C(=O)N[C@@H](CCCNC(=N)N)C(=O)N[C@@H](CO)C(=O)N[C@@H](CC(C)C)C(=O)N[C@@H](C)C(=O)N[C@@H](CCCNC(=N)N)C(=O)N[C@@H](Cc2ccccc2)C(=O)N[C@H](C(=O)O)CSSC[C@@H](C(=O)NCC(=O)N[C@@H](CCSC)C(=O)N[C@@H](CO)C(=O)N[C@H](C(=O)N[C@@H](Cc2c[nH]c3ccccc23)C(=O)N[C@@H](CO)C(=O)O)[C@@H](C)O)NC1=O | Relaxin receptor 1 (RXFP1, Homo sapiens, UniProt Q9HBX9, F76A/Y80A) | NanoBRET | – | concentration not given, with: relaxin 10 µM | – | fast dissociation fraction | 56%
NCc1ccc(Br)cc1 | MAOA | substrate | – | pH 9.0, α,α-protio substrate | – | kcat | 1.02 ± 0.0132 s⁻¹
COc1cc2c(cc1O)[C@@H](Cc1ccc(O)cc1)[N+](C)(C)CC2 | GAP50 | surface plasmon resonance | – | – | – | kon | 1500 M⁻¹ s⁻¹
NC(=O)NOCCCCCCCCCCCCCC[P+](c1ccccc1)(c1ccccc1)c1ccccc1.O=C([O-])C(F)(F)F | NADH dehydrogenase [ubiquinone] iron-sulfur protein 7, mitochondrial/NADH dehydrogenase [ubiquinone] iron-sulfur protein 2, mitochondrial/MT-ND1 | complex I-dependent respiration, Seahorse XF96 | HCT-116 | 4 µM, 24 h | relative to: control | oxygen consumption rate | 8.63 ± 5.08%
COc1cccc(-n2nc3c4cc(Cl)ccc4[nH]cc-3c2=O)c1 | Gamma-aminobutyric acid receptor subunit alpha-4/beta-3, with delta subunit (Rattus norvegicus, UniProt P28471+P63079) | modulator, two-electrode voltage clamp | α4β3δ receptor | 100 nM, with: GABA EC3-10 | relative to: GABA alone | GABA current | 102 ± 1.7%
Cc1cc2c(c(=O)[nH]1)C(=O)O/C2=C\c1ccc(Br)cc1OC(C)C | Dual specificity calcium/calmodulin-dependent 3',5'-cyclic nucleotide phosphodiesterase 1C, isoform PDE1C2 (PDE1C, Homo sapiens, UniProt Q14123) | enzyme activity, inhibitor | – | with: 3H-cGMP substrate | – | binding free energy | -8.17 kcal/mol
CC[C@H](C)[C@H](NC(=O)[C@H](CO)NC(=O)[C@@H](N)CC(=O)O)C(=O)N[C@@H](CCCNC(=N)N)C(=O)NCC(=O)N[C@@H](Cc1ccccc1)C(=O)N[C@@H](CC(C)C)C(=O)N[C@H](C(=O)N[C@@H](CCCNC(=N)N)C(=O)N1CCC[C@H]1C(=O)N[C@H](C(=O)N[C@@H](CCCNC(=N)N)C(=O)N[C@H](C(=O)N[C@H](C(=O)N[C@@H](Cc1c[nH]cn1)C(=O)N[C@@H](Cc1ccc(O)cc1)C(=O)N[C@@H](Cc1ccc(O)cc1)C(=O)N[C@@H](Cc1c[nH]c2ccccc12)C(=O)N[C@@H](CCCNC(=N)N)C(=O)N[C@@H](CCC(N)=O)C(=O)N[C@@H](Cc1ccccc1)C(=O)N[C@@H](CC(=O)O)C(=O)N[C@@H](CC(=O)O)C(=O)N[C@@H](CO)C(=O)N[C@@H](Cc1ccccc1)C(=O)N[C@@H](CCSC)C(=O)N[C@@H](CCCNC(=N)N)C(=O)N1CCC[C@H]1C(=O)N[C@H](C(=O)N[C@@H](Cc1ccccc1)C(=O)NCC(=O)NCC(=O)N[C@@H](CCCNC(=N)N)C(=O)O)C(C)C)C(C)C)[C@@H](C)O)[C@@H](C)O)[C@@H](C)O | Probable calcium-binding protein CML18 (CML18, Arabidopsis thaliana, UniProt Q9M8U1) | isothermal titration calorimetry | – | concentration not given, pH 6.3, 25 °C, with: 180 µM Ca2+ | – | binding enthalpy (ΔH1) | -6.26 ± 0.355 kcal/mol
Nc1c(Cl)c(Cl)nc(C(=O)O)c1Cl | Germin-like protein subfamily 3 member 1 (GLP1, Arabidopsis thaliana, UniProt P94040) | microscale thermophoresis | Arabidopsis protoplast extract | concentration not given | – | binding | no binding
N=C(N)c1ccc(OCCCCCOc2ccc(C(=N)N)cc2)cc1 | GAP50 | binding, surface plasmon resonance | – | 1:1 binding model | – | koff | 0.498 s⁻¹
CCNc1cc(=O)[nH]c(=O)[nH]1 | FFAR4 | β-arrestin recruitment | CHO | 10 µM | relative to: 30 µM TUG-891 | agonist effect | 1%
NCc1ccccc1 | MAOA | substrate | – | pH 9.0 | – | kcat | 0.16 ± 0.00152 s⁻¹
CC1=C(/C=C/C(C)=C/C=C/C(C)=C/C=O)C(C)(C)CCC1 | Rhodopsin (RHO, Bos taurus, UniProt P02699, G270L) | retinal entry, Trp FRET | lipid bicelles | 28 °C, G270L mutant | relative to: wild-type rhodopsin | relative kon | 1.09 ± 0.05
